Assay results from different studies.
Numbered parts are unrelated; each lists some results of a single study.

Block 1 — method: RNA Bind-n-Seq; form: RNA; medium: in vitro; tested at: 200 nM; notes: whole 134-nt RNA, ends assumed; together with: 150 mM KCl; reference: input library; reading: higher = stronger binding; endpoint: log2 enrichment
Target: Fragile X messenger ribonucleoprotein 1, C-terminal low-complexity region (Fmr1, Mus musculus, UniProt P35922)
All sequences stand within: GGGAGUUCUACAGUCCGACGAUC … UGGAAUUCUCGGGUGUCAAGG
UCCUCAAGUCCUGUGCUACACAUCGUAUGUACCGAAUCGGUUUGGUGGUGGAAAGUAUUAUGUUACGCCGUUCGGAUCUGCACUUCCAGC: -0.175
CAAGUCCUGUGCUACACAUCGUAUGUACCGAAUCGGGAGGGAAAAAAAGGGUGGGAAAGUAUUAUGUUACGCCGUUCGGAUCUGCACUUC: 0.683
UGGGAGGUGGAUUUUGUUUAUUUUUGUAGCUCAUUUCCAGGGGUGGGAAUUUUUUUUUAAUAUGUGUCAUGAAUAAAGUUGUUUUUGAAA: 0.416
CCUGUGCUACACAUCGUAUGUACCGAAUCGGGAAAAAAAGGGAAAAAGGGAAAAAAAGGGAAAGUAUUAUGUUACGCCGUUCGGAUCUGC: -0.734
ACCAUGCAGGUGGGCAUCUUUGGGAAGUGGAGCAAGGGGGGGAUAGGGAGGGGGGUAACACUUUGGGAACAGGUGGUCCCAGGUCGUUUC: 0.67
UCCUUUCUGUCAUUUUACACCCACAGUUGAAGAUUCCUGUCUCUGGAUCCAAAUCAGAGGGCCUUCUCUACGUCCACUCAUCCAGAGGUG: -1.45
UGGGAGGUGGAUUUUGUUUAUUUUUUUAGCUCAUUUCCAGGGGUGGGAAUUUUUUUUUAAUAUGUGUCAUGAAUAAAGUUGUUUUUGAAU: 0.329
GUCCUGUGCUACACAUCGUAUGUACCGAAUCGGGGCCCCCGGGGCCCCCGGGCCCCCGGAAAGUAUUAUGUUACGCCGUUCGGAUCUGCA: 0.444
GUCCUGUGCUACACAUCGUAUGUACCGAAUCGGGGAAAGGGGAAAAAAAGGGGAGGGGAAAGUAUUAUGUUACGCCGUUCGGAUCUGCAC: 0.29

Block 2 — method: protein-binding microarray; form: double-stranded DNA, one strand shown; medium: in vitro; tested at: 250 nM; notes: 60-bp whole probe; together with: salmon DNA 0.4 mg/ml; reference: random background probes; reading: higher = stronger binding; endpoint: log fluorescence; all sequences stand within: GCCTAGCAC … GTCTTGATTCGCTTGACGCTGCTG
Target: Interferon regulatory factor 5, full length, phosphomimetic (IRF5, Homo sapiens, UniProt Q13568-2, residues 1-514, K96S/S451D/S453D/S456D/S462D)
TTAGATATCGGGATTCGATTAGTGCTA: 2.19 z-score
GACGAACTGAGACGGGAGACGTGCTAG: -0.382 z-score
TACGGACTGCTTTTCCTGACGTGCTAG: -0.365 z-score
TCACATATAATTTTGTCACTGTGCTAG: 0.692 z-score
TTGAGGTTTTCTCTGGTTCTGTGCTAG: 0.45 z-score
TTAGATATCGGGTATCGACTAGTGCTA: 3.82 z-score
TTAGATTTCGGGTATCGTTTAGTGCTA: 6.17 z-score
TTAGAGATCGGGTTTCGATTAGTGCTA: 6.8 z-score
TTGGGTATCGGGACTGGGTTAGTGCTA: 1.54 z-score
GACGGTCTCCTACTGCTCACGTGCTAG: -0.351 z-score
TCATACCTGTATATCTTACTGTGCTAG: 0.422 z-score
CAGAAAATGGAAACTCGTATGGTGCTA: 1.04 z-score
GACGATTTCAGACTTGAGACGTGCTAG: 0.0907 z-score
TTGGATTTCAGTATCGATTAGTGCTAG: 8.26 z-score
GACGATATCTGTCTCGAGACGTGCTAG: 0.969 z-score
TTGGGTATCGGTCTCGGTTAGTGCTAG: 6.12 z-score
GACGGATTCCTTTCCCTGACGTGCTAG: 0.481 z-score
TTATGTCTCGGACTGGGTTAGTGCTAG: 0.00824 z-score
TAGTTTTACTTTCTATCTCTGTGCTAG: 5.82 z-score

Block 3 — method: RNA Bind-n-Seq; form: RNA; medium: in vitro; tested at: not given; notes: 4-mer, random 30-nt RNA, single round; together with: RocA, ADP, phosphate; reference: input library; reading: higher = stronger binding; endpoint: 4-mer enrichment
Target: Eukaryotic initiation factor 4A-I (EIF4A1, Homo sapiens, UniProt P60842, residues 1-406, full length assumed)
Sequence of UniProt P60842 (whole entry, looked up): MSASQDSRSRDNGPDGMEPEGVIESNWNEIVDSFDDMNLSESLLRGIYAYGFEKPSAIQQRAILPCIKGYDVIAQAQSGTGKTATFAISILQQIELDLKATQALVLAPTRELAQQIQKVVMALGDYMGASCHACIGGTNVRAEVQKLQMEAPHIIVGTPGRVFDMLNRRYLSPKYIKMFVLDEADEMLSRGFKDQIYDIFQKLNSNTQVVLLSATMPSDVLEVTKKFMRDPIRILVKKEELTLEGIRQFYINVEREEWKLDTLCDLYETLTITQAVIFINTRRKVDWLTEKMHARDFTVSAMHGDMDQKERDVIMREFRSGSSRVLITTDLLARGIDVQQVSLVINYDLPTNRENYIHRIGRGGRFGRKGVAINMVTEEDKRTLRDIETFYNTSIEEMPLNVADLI
CCUU: 0.573 fold
CAGU: 0.777 fold
GGUU: 0.99 fold
AGGG: 1.43 fold
UCAU: 0.634 fold
ACUG: 0.754 fold
AAAU: 1.12 fold
CAUA: 0.747 fold
CGUA: 0.772 fold
CUGU: 0.684 fold
AAAG: 1.45 fold
CGAG: 1.75 fold
AUCG: 0.779 fold
CAAC: 0.646 fold
GCCG: 0.717 fold
UCUU: 0.586 fold
CACU: 0.582 fold
AUCA: 0.713 fold

Block 4 — method: RNA Bind-n-Seq; form: RNA; medium: in vitro; tested at: 365 nM; reference: no-protein control; reading: higher = stronger binding; endpoint: RBNS enrichment (R)
Target: RNA binding protein fox-1 homolog 2, RRM domain, GST-SBP tag (RBFOX2, Homo sapiens, UniProt O43251-10, residues 100-194)
Notes: natural RNA segment, single round, ends assumed
All sequences stand within: GGGAGUUCUACAGUCCGACGAUC … UGGAAUUCUCGGGUGCCAA
Target sequence (chain): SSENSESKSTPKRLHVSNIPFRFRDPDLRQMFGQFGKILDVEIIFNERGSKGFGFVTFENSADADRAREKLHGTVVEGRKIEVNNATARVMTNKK
CAAGCAACUGAAUUUAUAUGUAAAAAUAACAUUUAGACCUGUGGAUCAAAGAUUAUUUUCAAAAAUGAGAUAUCAAUUUGGUAUCAGUAAAAAGUGUCUUUUCUCUUAGU: 0.395
GAACGGACAGCAAAGGUGCAGGCGGUCAGGCUCCUCGCUUGGAAGACCACGGUUCUGAGCAAGUCUGCACAACAGCACCAAAAGGAGACCCCGAGGCCCAAAGAUAAACU: 0.497
CCGAAACAAAUAAAAAAUACUGUAAUAAAAGUACUUAUAAACAUACUAAUCCUCUUUCAGGACCCUAAAGUUGCAGGUUAGUAGGUCUUCAAGGACAAAUCUGUAAGUUU: 0.623
AGAGUGGCCCGAGGCCGUCCCUCACCGGGCAUGUUCCCUCUGGCUGCCCACUCCCUCAGGGCCCACAUGUCCUGCCACUCGCCACUCUGAGCACGAGUUCACCUUCCAGA: 0.547
UCGGCAGCGGGCCAACUGUGGUUUCUCUCUUGCCAUGAUGACUUCUAAUUGCCAUGUAUAGUAUGUUCGGUUAGAUAACUCACUGUAAACAGACUGUAACUGCCAGGCAG: 0.345
AAGCGAGGUCAGACAUCCACCAGAAUCAACUCAGCCUCAGGCAUCCAAAGCCACAUCACAGUCGGUGGUGAUGCAUCUGGGGGCUUACUCUGAGGAAACCUAGGAAAUCU: 0.221
GAGUCCUGGAGUUAACCAUGAAGAAAACUCUGACUUAGCACUCAGAGGCAUACACUUUUUACAGAUGGACAAAAGCUCUGGAACCCUGUGGCUUCAAAUCCUUUGGGAAG: 0.237
GAAAAAAAUCCAACUUUAUUCCUAAGUUUUAAUUGUUAGAAAGUAUUUUCGGAGCCAGUGAUGCUCUUUAAAGGAGUUAUUUCUUCCAAAGAAGCAAGACGAGCCAGGUU: 0.387

Block 5 — method: protein binding microarray; form: double-stranded DNA, one strand shown; medium: in vitro; tested at: not given; reference: not given; reading: higher = stronger binding; endpoint: E-score
Target: Histone acetyltransferase KAT6A, winged helix 1, GST fusion (KAT6A, Homo sapiens, UniProt Q92794, residues 1-85)
Notes: 8-mer, flanks averaged, mean of 2 arrays, mostly near background
Residues (chain): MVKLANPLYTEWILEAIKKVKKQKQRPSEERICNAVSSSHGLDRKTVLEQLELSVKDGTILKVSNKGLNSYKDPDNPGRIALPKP
AAAAACGG: 0.0673
CATCGGGG: 0.0877
ACAATCGA: -0.158
CCGGTAAG: 0.232
AAATAAAT: -0.167
CCTAGGAA: -0.143
CGCCCTGC: 0.226
CACATGTA: -0.182
CATCGCCG: 0.382
ATTGGAGA: -0.147
ATTATCTG: -0.187
CTTTTGGC: -0.0455
GTCGCGTA: 0.286
GAGGATGC: 0.0186
CTGGTAAC: -0.0794
CCGCGAGG: 0.365
